Assay results of several laboratories.
Target: Rhodopsin kinase GRK1 (GRK1, Homo sapiens, UniProt Q15835)

`CC(C)=CC1OC(C)(C)C2C=C3C(=O)C(Cl)=CC(O)C3C3C(O)C4OC4C(=O)C132` (centres unmarked) gave a remaining binding of 73% (cell-free assay, competition with immobilised ligand; 10 µM).
The remaining binding of `COc1c(Cl)cccc1Nc1c(-c2ccncc2C#C[C@@]2(C)CCCN2C(=O)/C=C/CN(C)C)[nH]c2c1C(=O)NCC2` is reported as 92% (binding, competition with immobilised ligand; 3 µM).
`COc1cc(Nc2nc(C)cc(-c3cnn4nc(OC)ccc34)n2)cc(C(F)(F)F)c1` gave a remaining activity of 75% (inhibitor; 1 µM; relative to: control).
For `Cc1ccc(-c2c(/C=C(\C#N)C(=O)NC(C)C)n(CCCO)c3ncnc(N)c23)cc1`, the remaining binding was 100% (cell-free assay, competition with immobilised ligand; 1 µM).
`CCN1CCN(Cc2ccc(C(=O)Nc3ccc(C)c(NCc4cnc5[nH]ccc5c4OC)c3)cc2C(F)(F)F)CC1` gave a remaining binding of 71% (binding, competition with immobilised ligand; 1 µM).
`NC(=O)C[C@H]1CCc2sc3ncnc(O[C@H]4CC[C@H](N5CCOCC5)CC4)c3c21` has an inhibition of 11% (enzyme activity, inhibitor; 10 µM).
`Nc1ncc(-c2cc(-c3cnn(CC(F)(F)F)c3)ncc2F)nc1C(=O)NC1CNCC(F)C1` (centres unmarked) gave a remaining activity of 103% (enzyme activity; 1 µM; relative to: DMSO control).
`C=CC(=O)N1Cc2nc(-c3cc(-c4cc(Cl)cnc4Cl)c(F)cc3F)n(-c3ccncn3)c2C1` has an inhibition of 7.7% (cell-free assay, inhibitor; 1 µM).
The remaining binding of `C=CC(=O)N1CCc2ccc(-n3c(=O)ccc4cnc5ccc(-c6cnn(C)c6)cc5c43)cc21` is reported as 95% (KINOMEscan; 1 µM; relative to: DMSO control).
For `COc1cc(Nc2nccc(-c3cnn4nc(OC)ccc34)n2)cc(C(F)(F)F)c1`, the remaining binding was 86% (binding, competition with immobilised ligand; 1 µM).
With `CN1CC[C@@H](COc2cnc(C#N)cc2-c2ccn3nc(NC(=O)C4CC4)cc3c2)C1` the inhibition was 5% (enzyme activity, inhibitor; 1 µM).
With `Nc1ncc2c(n1)-c1c([nH]c3ccc(C4=CCOCC4)cc13)CCC2` the remaining binding was 72% (binding, competition with immobilised ligand; 1 µM).
`CNC(=O)C[C@H](Cc1ccc(C#N)cc1)NC(=O)c1cc(-c2ccc(CN[C@H](C)c3ccc(C)cc3)o2)ccc1Cl`: “activity vs control” 100% (enzyme activity, inhibitor; 1 µM).
`C=CC(=O)N1CCCC(n2c(=O)c3ncccc3n(Cc3ccc(Oc4ccccc4)cc3)c2=O)C1` (centres unmarked) gave a remaining binding of 87% (cell-free assay, competition with immobilised ligand; 1 µM).
The remaining binding of `Cc1cnc2nc1Nc1cccc(c1)COC/C=C/COCc1cc(ccc1OCCN1CCOCC1)N2` is reported as 94% (binding; 0.1 µM).
With `Cc1c[nH]c2nccc(-c3ccc(C(=O)N[C@@H]4c5c(F)cc(C(F)F)cc5C[C@@H]4O)cn3)c12` the remaining binding was 9.3% (binding, competition with immobilised ligand; 3 µM).
For `O=C(Cc1ccc(OCc2ccccc2)cc1)NC1(C(=O)O)CCN(C(=O)c2ccc(-c3cccc(Cl)c3)cc2)CC1`, “activity vs control” read 84% (enzyme activity, inhibitor; 10 µM).
`CNC(=O)C1CCN(c2cc(C)c(F)cc2NC(=O)c2ccc(-c3cc(O)ccc3C)c(C)c2)CC1` has a remaining binding of 100% (binding, competition with immobilised ligand; 1 µM).
For `CCn1cc(C(=O)O)c(=O)c2c(N)c(F)c(NC3CCCCC3)cc21`, the inhibition was -9.5% (kinase activity; 0.1 µM, added: ATP at Km).
`CN1CCN(Cc2ccc(-c3ccc(CO[C@H]4CCC[C@@H]4NC(=O)c4cc(-c5cnn(C)c5)cnc4N)cc3)cc2)CC1` gave an inhibition of -4% (enzyme activity, inhibitor; 0.1 µM).
For `CNC1C[S+]2CC[S+]3CC[S+](C1)[Ru-4]321([N]=C=S)[n]2c3ccc(OC)cc3c3c4c(c5cc(F)c[n+]1c5c32)C(=O)NC4=O` (centres unmarked), the remaining binding was 4.4% (KinomeScan; 0.1 µM; relative to: untreated).
`Cc1nc2c(F)cc(-c3nc(Nc4ccc(CNC(=O)CCCCCCC(=O)NO)cc4)ncc3F)cc2n1C(C)C` has an inhibition of 0% (enzyme activity, inhibitor; 1 µM).
With `NC(=O)[C@@H](O)C[C@H]1CCc2sc3ncnc(O[C@H]4CC[C@H](N5CCOCC5)CC4)c3c21` the inhibition was 12% (enzyme activity, inhibitor; 10 µM).

For quick reference, copied from above:
The remaining binding of `Cc1cnc2nc1Nc1cccc(c1)COC/C=C/COCc1cc(ccc1OCCN1CCOCC1)N2` is reported as 94% (binding; 0.1 µM).
With `Nc1ncc2c(n1)-c1c([nH]c3ccc(C4=CCOCC4)cc13)CCC2` the remaining binding was 72% (binding, competition with immobilised ligand; 1 µM).
